Experimental data pooled from the literature.
Protocols differ between the studies behind these lines. “And” joins repeats or separate records; there may be more than shown. ± marks the error that the study gave. In brackets after ≈: the same amount, converted by molar mass.
Sequence of UniProt Q9NZJ5 (whole entry, looked up): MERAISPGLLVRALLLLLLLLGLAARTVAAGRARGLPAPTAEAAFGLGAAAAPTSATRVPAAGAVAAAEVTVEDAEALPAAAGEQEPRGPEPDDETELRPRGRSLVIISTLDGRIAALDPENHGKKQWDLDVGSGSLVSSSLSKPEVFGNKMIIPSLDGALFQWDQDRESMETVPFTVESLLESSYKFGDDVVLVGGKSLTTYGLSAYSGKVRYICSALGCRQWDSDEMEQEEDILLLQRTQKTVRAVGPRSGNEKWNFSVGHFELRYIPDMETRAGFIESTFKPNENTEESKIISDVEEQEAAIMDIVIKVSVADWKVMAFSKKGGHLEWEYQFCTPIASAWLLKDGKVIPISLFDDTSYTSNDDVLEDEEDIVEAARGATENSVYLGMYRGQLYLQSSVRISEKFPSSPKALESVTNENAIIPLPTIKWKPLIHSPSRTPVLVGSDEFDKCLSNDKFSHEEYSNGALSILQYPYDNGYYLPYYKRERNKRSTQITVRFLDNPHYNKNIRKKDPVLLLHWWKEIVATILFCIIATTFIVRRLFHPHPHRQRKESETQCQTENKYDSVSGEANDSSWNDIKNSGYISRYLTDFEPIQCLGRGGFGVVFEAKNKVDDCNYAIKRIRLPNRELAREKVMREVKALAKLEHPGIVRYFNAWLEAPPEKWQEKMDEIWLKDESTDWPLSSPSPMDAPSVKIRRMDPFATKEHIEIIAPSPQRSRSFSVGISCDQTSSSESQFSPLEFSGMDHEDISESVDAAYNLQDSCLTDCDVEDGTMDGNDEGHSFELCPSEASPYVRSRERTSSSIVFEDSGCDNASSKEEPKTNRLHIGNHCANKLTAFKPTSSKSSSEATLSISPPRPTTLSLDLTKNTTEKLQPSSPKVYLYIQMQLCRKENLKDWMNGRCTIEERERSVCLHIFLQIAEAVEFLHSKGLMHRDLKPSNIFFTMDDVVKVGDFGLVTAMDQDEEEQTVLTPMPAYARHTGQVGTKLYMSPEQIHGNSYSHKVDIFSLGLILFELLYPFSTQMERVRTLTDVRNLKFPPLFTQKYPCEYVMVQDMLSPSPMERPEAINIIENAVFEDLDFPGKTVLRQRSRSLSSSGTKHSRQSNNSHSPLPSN
Sequence of UniProt Q9Y5S2 (whole entry, looked up): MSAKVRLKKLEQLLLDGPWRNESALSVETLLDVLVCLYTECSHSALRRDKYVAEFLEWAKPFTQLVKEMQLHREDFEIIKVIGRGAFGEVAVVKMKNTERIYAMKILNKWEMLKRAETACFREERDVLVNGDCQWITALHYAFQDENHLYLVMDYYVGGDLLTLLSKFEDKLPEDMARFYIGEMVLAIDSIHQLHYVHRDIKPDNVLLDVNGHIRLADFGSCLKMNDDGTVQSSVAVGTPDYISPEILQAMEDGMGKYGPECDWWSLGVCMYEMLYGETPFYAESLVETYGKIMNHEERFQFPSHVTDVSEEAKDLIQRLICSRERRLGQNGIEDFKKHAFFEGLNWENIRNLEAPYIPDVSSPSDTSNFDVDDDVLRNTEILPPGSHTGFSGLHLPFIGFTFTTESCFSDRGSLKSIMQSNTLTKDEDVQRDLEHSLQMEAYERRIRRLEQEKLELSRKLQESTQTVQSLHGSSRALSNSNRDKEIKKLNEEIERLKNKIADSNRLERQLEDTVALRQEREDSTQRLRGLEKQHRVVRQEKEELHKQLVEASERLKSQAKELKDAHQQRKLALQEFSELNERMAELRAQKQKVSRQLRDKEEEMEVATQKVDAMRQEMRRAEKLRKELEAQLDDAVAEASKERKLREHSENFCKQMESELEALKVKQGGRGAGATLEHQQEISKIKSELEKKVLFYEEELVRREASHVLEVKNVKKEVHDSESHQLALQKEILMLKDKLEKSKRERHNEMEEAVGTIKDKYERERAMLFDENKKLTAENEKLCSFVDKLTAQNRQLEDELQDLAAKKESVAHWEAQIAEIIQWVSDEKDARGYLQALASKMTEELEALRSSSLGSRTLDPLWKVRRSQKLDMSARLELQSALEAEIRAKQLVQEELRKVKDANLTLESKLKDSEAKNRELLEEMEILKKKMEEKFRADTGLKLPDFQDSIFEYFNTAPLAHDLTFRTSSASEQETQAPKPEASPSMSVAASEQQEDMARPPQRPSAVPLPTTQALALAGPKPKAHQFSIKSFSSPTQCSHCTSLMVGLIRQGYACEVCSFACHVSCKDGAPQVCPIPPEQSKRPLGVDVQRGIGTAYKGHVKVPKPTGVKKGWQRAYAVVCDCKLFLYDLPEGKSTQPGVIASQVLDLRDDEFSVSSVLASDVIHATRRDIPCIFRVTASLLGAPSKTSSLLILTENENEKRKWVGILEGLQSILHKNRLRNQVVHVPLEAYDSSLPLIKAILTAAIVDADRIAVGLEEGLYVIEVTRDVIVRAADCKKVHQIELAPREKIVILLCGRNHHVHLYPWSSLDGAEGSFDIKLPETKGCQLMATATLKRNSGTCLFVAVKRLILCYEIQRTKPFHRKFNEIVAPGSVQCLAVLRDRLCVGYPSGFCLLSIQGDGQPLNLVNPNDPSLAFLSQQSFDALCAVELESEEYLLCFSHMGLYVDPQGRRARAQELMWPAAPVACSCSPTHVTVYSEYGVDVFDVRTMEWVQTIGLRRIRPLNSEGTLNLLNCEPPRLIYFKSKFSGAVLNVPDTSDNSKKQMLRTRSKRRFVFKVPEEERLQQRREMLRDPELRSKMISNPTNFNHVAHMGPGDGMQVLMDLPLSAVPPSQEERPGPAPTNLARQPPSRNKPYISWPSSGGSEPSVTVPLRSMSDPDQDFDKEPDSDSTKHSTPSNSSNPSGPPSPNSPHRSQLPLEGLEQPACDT

SMILES	target or system	assay	system	setting	how to read	quantity	value
CC1OC(OC2C(CO)OC(OC3CCC4(C)C(CCC5(C)C4CC=C4C6CC(C)(C)CCC6(C(=O)NCc6ccccc6)CCC45C)C3(C)C)C(OC3OC(C)C(O)C(O)C3O)C2O)C(O)C(O)C1O (stereo not shown)	Influenza A virus		MDCK, A/WSN/1933 (H1N1)		baseline: CC50 over EC50	selectivity index	< 5
Cc1ccc(-c2nc3ccc(C)cn3c2CC(=O)NCc2ccc(N(C)C)cc2)cc1	Bacillus subtilis	microbial growth	ATCC6633	2 mM, 20 h		inhibition zone	15 mm
O=C(CCN(CCC(=O)N[C@@H](Cc1c[nH]c2ccccc12)C(=O)O)C(=O)CCN(CCC(=O)N(CCC(=O)N[C@@H](Cc1c[nH]c2ccccc12)C(=O)O)CCC(=O)N[C@@H](Cc1c[nH]c2ccccc12)C(=O)O)C(=O)[C@H]1C[C@@H](C(=O)N(CCC(=O)N(CCC(=O)N[C@@H](Cc2c[nH]c3ccccc23)C(=O)O)CCC(=O)N[C@@H](Cc2c[nH]c3ccccc23)C(=O)O)CCC(=O)N(CCC(=O)N[C@@H](Cc2c[nH]c3ccccc23)C(=O)O)CCC(=O)N[C@@H](Cc2c[nH]c3ccccc23)C(=O)O)C[C@@H](C(=O)N(CCC(=O)N(CCC(=O)N[C@@H](Cc2c[nH]c3ccccc23)C(=O)O)CCC(=O)N[C@@H](Cc2c[nH]c3ccccc23)C(=O)O)CCC(=O)N(CCC(=O)N[C@@H](Cc2c[nH]c3ccccc23)C(=O)O)CCC(=O)N[C@@H](Cc2c[nH]c3ccccc23)C(=O)O)C1)N[C@@H](Cc1c[nH]c2ccccc12)C(=O)O	human coronavirus 229E	viral replication				EC50	40 ± 0.2 µM
CC(C)[C@H]1NC(=O)C[C@H]2/C=C/CCSSC[C@@H](NC1=O)C(=O)N[C@H](Cc1cccc3ccccc13)C(=O)NCC(=O)O2	ALK tyrosine kinase receptor, EML4-ALK fusion (ALK, Homo sapiens, UniProt Q9UM73)			10 µM		inhibition	1.6%
CC1(C)C(NC(=O)C(=NOCC(=O)N2CC3CCCC3C2C(=O)O)c2csc(N)n2)C(=O)N1OS(=O)(=O)O (stereo not shown)	Salmonella enterica Typhi	agar dilution	susceptible			MIC	1 µg/mL (≈ 1.74 µM)
Oc1ccc(Br)cc1-c1nc2cc(C(F)(F)F)ccc2s1	human coronavirus 229E		Huh-7	concentration not given, unit not given	baseline: DMSO	genomic RNA level	0.603 and 0.823 and 1.03
Cc1nc2cccc(OCC(C)(C)C(=O)NC(C)C)c2c(N)c1C(=O)[O-].[Na+]	Salmonella typhimurium		TA1537	0.051 mg per plate, without S9, preincubation		revertant colonies per plate	12 ± 2
CCN(CC)C(=O)C12CCC(C)(C)CC1C1=CCC3C4(C)CCC(OC5OC(CO)C(OC6OC(C)C(O)C(O)C6O)C(O)C5OC5OC(C)C(O)C(O)C5O)C(C)(C)C4CCC3(C)C1(C)CC2 (stereo not shown)	Influenza A virus	viral replication	MDCK, A/WSN/1933 (H1N1)	48 h		EC50	> 50 µM
Cc1ccn2c(-c3csc(Nc4ccccn4)n3)c(C)nc2c1	Mycobacterium bovis BCG			concentration not given		activity	inactive
CC(C)(O/N=C(\C(=O)N[C@@H]1C(=O)N(OS(=O)(=O)O)C1(C)C)c1nsc(N)n1)C(=O)O	Salmonella enterica Typhi	agar dilution	susceptible			MIC	32 µg/mL (≈ 68.6 µM)
CCc1ccn2c(C(=O)NCc3ccc(C)cc3)c(C)nc2c1	Bacillus subtilis	microbial growth	ATCC6633	2 mM		inhibition zone	0 mm
COc1ccccc1-c1n[nH]c2nc(NC3CCN(C(=O)Cc4ccc(F)cc4F)CC3)ncc12	MPK5 LINJ.30.2930	bead competition pull-down	Leishmania donovani extract	10 µM	baseline: vehicle	relative captured amount	0.76
CC1(C)CCC2(C(=O)NCc3ccccc3)CCC3(C)C(=CCC4C5(C)CCC(OC(=O)C6CC(OC(=O)c7ccc(Cl)c(Cl)c7)CN6C(=O)c6ccc(Cl)c(Cl)c6)C(C)(C)C5CCC43C)C2C1 (stereo not shown)	Influenza A virus	viral replication	MDCK, A/WSN/1933 (H1N1)	48 h		EC50	> 20 µM
CC[C@H](C)[C@H](NC(=O)[C@H](CO)NC(=O)[C@H](Cc1ccc(O)cc1)NC(=O)[C@H](Cc1ccc(O)cc1)NC(=O)[C@H](CC(N)=O)NC(=O)CNC(=O)[C@H](CO)NC(=O)[C@H](Cc1ccc(O)cc1)NC(=O)[C@H](CO)NC(=O)[C@H](CO)NC(=O)[C@H](CC(N)=O)NC(=O)COCCOCCNC(=O)CN1CCN(CC(=O)O)CCN(CC(=O)O)CCN(CC(=O)O)CC1)C(=O)N[C@@H](CC(C)C)C(N)=O [copper-64 labelled]		dynamic PET	KPC mouse, pancreatic cancer model, blood	intravenous, 0.9 min, 49 days after tamoxifen		tumour uptake	32.3 %ID/mL
CS(C)(=O)=Nc1ccc(-c2ccc(-c3nc4cc(O[C@@H]5CO[C@H]6[C@@H]5OC[C@H]6O)[nH]c4cc3F)cc2)cc1	TNF-alpha human	binding		10 µM		inhibition	-2%
CN[C@@H]1[C@H](O)[C@H](NC)[C@H]2O[C@]3(O)[C@H](O[C@@H]2[C@H]1O)O[C@H](C)C[C@H]3NC(=O)Cc1cc(Cl)ccn1	Mycolicibacterium fortuitum	microbial growth	ATCC6841			MIC	50 µg/mL (≈ 103 µM)
C#CCO/N=C(\C(=O)N[C@@H]1C(=O)N(OS(=O)(=O)O)C1(C)C)c1csc(N)n1	Salmonella enterica Typhi	agar dilution	susceptible			MIC	0.5 µg/mL (≈ 1.2 µM)

SMILES	target or system	assay	system	setting	how to read	quantity	value
Cc1ccc(N2CC3CC(C2)N3C)cc1C(=O)NC1(c2ccc3c4c(cccc24)C(=O)N3C)CC1	human coronavirus 229E	viral replication	Huh-7	100 µM		inhibition	100%
CC(C)CC(C(=O)N1CC2(CC1C#N)C(=O)Nc1ccccc12)N(C)C(=O)c1cc2c(F)cc(F)c(F)c2[nH]1 (stereo not shown)	human coronavirus 229E	viral replication	MRC-5	0.00031 µM		inhibition	2.1%
Cc1cc(Oc2nc(N3CC[C@@H](c4ccncc4)C3)ncc2F)[nH]n1	Mycobacterium tuberculosis	OD	H37Rv PurF CRISPRi knockdown	0.007813 µM, together with: anhydrotetracycline low		normalised growth	9% and 7%
CN[C@@H]1[C@H](O)[C@H](NC)[C@H]2O[C@]3(O)[C@H](O[C@@H]2[C@H]1O)O[C@H](C)C[C@H]3NC(=O)Cc1ccc(F)cn1	Burkholderia cepacia	microbial growth, broth dilution	ATCC25416			MIC	> 200 µg/mL
CC(C)(C)C(=O)OCOP(=O)(OCOC(=O)C(C)(C)C)C1CCCN(O)C1=O (stereo not shown)	SK-MEL-2					log TGI	-5.06 log M
Cc1ccc(-c2nc3ccc(C)cn3c2C(=O)C(=O)NCc2ccc(N(C)C)cc2)cc1	Micrococcus luteus	microbial growth	ATCC10240	2 mM, 20 h		inhibition zone	0 mm
CCCC/C=C/C(=O)N[C@@H](Cc1csc2ccccc12)C(=O)N[C@H]1COC(=O)[C@@H]2C[C@@H](C)CN2C(=O)[C@H](C)NC(=O)[C@@H]2CCCCN2C(=O)[C@@H]2CCCN2C1=O	human coronavirus 229E		Huh-7	concentration not given		virus titre	34100 TCID50/mL and 50000 TCID50/mL
O=C1NC(=O)c2c1c1cc(F)c[n+]3c1c1c2c2cc(O)ccc2[n]1[Ru-4]312([N]=C=S)[S+]3CC[S+]1CC[S+]2CC3 (stereo not shown)	CDC42BPB (Homo sapiens, UniProt Q9Y5S2)	enzyme activity		100 nM, human enzyme, together with: 10 µM ATP	baseline: untreated	remaining activity	96%
Cc1ccc(NS(=O)(=O)c2c(C(=O)N3CCCCCC3)c(C)n(C)c2C)c(Cl)c1	Fowlpox virus	viral infection	CEF	100 µM	baseline: untreated	infection	101% and 100%
CCc1ccn2c(C(=O)N(C)C)c(C)nc2c1	Bacillus subtilis	microbial growth	ATCC6633	2 mM, 20 h		inhibition zone	0 mm
COc1ccccc1-c1n[nH]c2nc(N[C@H]3CC[C@H](NS(=O)(=O)CC(C)C)CC3)ncc12	LINJ.11.1000	bead competition pull-down	Leishmania extract	1.25 µM	baseline: vehicle	relative captured amount	0.84
COc1ccc(C(=O)N2CC(OC(=O)c3ccc(F)c(F)c3)CC2C(=O)OC2CCC3(C)C(CCC4(C)C3CC=C3C5CC(C)(C)CCC5(C(=O)NCc5ccccc5)CCC34C)C2(C)C)cc1OC (stereo not shown)	Influenza A virus	viral replication	MDCK, A/WSN/1933 (H1N1)	48 h		EC50	3.63 ± 0.38 µM
O=C1NC2(CC2)COc2ncc(F)cc2[C@H]2COCCN2c2ccn3ncc1c3n2			Sprague-Dawley rat, female, serum	oral, 5 mg/kg/day, 4 weeks daily, end of recovery period		total cholesterol	1.51 ± 0.31 mmol/L
CC1(C)CCC2(C(=O)NCc3ccccc3)CCC3(C)C(=CCC4C5(C)CCC(OC(=O)C6CC(OC(=O)C7CC(O)C(O)C(O)C7)CN6C(=O)c6ccc(O)c(O)c6)C(C)(C)C5CCC43C)C2C1 (stereo not shown)	Influenza A virus	viral replication	MDCK, A/WSN/1933 (H1N1)	48 h		EC50	0.4 ± 0.27 µM
Cc1cc(C(=O)Nc2nc3cccc(C)c3n2[C@H]2CCCCN(C(=O)/C=C/CN(C)C)C2)ccn1	Trypanosoma brucei		STIB795, mouse acute HAT model	oral, 25 mg/kg once daily for 4 days, day 0	baseline: mice	survival	100%
Cc1ccc2nc(C)c(C(=O)NCc3ccccc3)n2c1	Bacillus subtilis	microbial growth	ATCC6633	2 mM		inhibition zone	0 mm
CN(C)[C@H]1C[C@@]23CC[C@@]4(O2)C(=CC[C@]2(C)[C@@H](c5ccc6ccncc6c5)CC[C@H]24)C=C3[C@@H](O)[C@@H]1O	EIF2AK3 (Homo sapiens, UniProt Q9NZJ5)	ATP probe labelling, inhibitor, KiNativ profiling		1 µM		inhibition	-0.8%

Excerpt of the above:
SMILES	target or system	assay	system	setting	how to read	quantity	value
Cc1ccn2c(-c3csc(Nc4ccccn4)n3)c(C)nc2c1	Mycobacterium bovis BCG			concentration not given		activity	inactive
CC(C)(O/N=C(\C(=O)N[C@@H]1C(=O)N(OS(=O)(=O)O)C1(C)C)c1nsc(N)n1)C(=O)O	Salmonella enterica Typhi	agar dilution	susceptible			MIC	32 µg/mL (≈ 68.6 µM)
CCc1ccn2c(C(=O)NCc3ccc(C)cc3)c(C)nc2c1	Bacillus subtilis	microbial growth	ATCC6633	2 mM		inhibition zone	0 mm
COc1ccccc1-c1n[nH]c2nc(NC3CCN(C(=O)Cc4ccc(F)cc4F)CC3)ncc12	MPK5 LINJ.30.2930	bead competition pull-down	Leishmania donovani extract	10 µM	baseline: vehicle	relative captured amount	0.76
CC1(C)CCC2(C(=O)NCc3ccccc3)CCC3(C)C(=CCC4C5(C)CCC(OC(=O)C6CC(OC(=O)c7ccc(Cl)c(Cl)c7)CN6C(=O)c6ccc(Cl)c(Cl)c6)C(C)(C)C5CCC43C)C2C1 (stereo not shown)	Influenza A virus	viral replication	MDCK, A/WSN/1933 (H1N1)	48 h		EC50	> 20 µM
